Measurements gathered from unrelated publications.
Parts stem from different laboratories: compare values within a part only.

Series 1
Target: Centromere-binding protein 1, full length, His-tagged (CBF1, Saccharomyces cerevisiae, UniProt P17106, residues 1-351)
Sequence of UniProt P17106 (whole entry, looked up): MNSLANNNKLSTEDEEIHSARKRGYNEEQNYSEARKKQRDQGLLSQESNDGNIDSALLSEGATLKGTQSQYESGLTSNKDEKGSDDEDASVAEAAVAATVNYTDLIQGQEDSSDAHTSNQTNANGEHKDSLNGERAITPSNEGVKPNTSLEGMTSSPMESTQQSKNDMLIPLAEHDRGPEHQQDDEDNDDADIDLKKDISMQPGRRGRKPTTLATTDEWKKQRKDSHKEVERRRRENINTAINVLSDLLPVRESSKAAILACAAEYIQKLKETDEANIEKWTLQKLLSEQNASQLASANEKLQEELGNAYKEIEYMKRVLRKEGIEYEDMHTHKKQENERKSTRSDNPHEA
Method: competition protein-binding microarray
Form: double-stranded DNA, one strand shown
Medium: in vitro
Tested at: 2 µM
Notes: whole 60-bp probe, lowest competitor level
Added: Pho4 competitor, 0.05 µM
Reading: higher = stronger binding
All sequences stand within: … GTCTTGATTCGCTTGACGCTGCTG
With `CTTCTGTAAATTTGCGATGTGGGTGGACGCGCCCCG` the fluorescence intensity was 69.7 a.u.
The fluorescence intensity of `CGGGGTTAAGTTTTCCACGTGTTTTGCTTGCAGCAG` is reported as 598 a.u.
`AGGTTTACACAATCGCACGTGATGGTATATTTGCCA` has a fluorescence intensity of 4610 a.u.
For `CGGGGTTAAGTTTGCTGGGTGGGTGGCTTGCAGCAG`, the fluorescence intensity was 68.4 a.u.
The fluorescence intensity of `TTACTTTTAATCGATGACATGATAAGTTTCTTTTGA` is reported as 74.3 a.u.
`CGTCCTAGTGATTGTTATGTGGGTGCCATGAGGAAG` has a fluorescence intensity of 92 a.u.
`GCTAGTAGCTCTACCCACGGGACTACTCACAGTTCT` gave a fluorescence intensity of 148 a.u.
`CATACCCAACCTTGTTCCGTGGGTGAAGATATTTGT` has a fluorescence intensity of 69.5 a.u.
The fluorescence intensity of `CTCACAGATCTTCAACACGTGAAGATCGGTTGCATT` is reported as 876 a.u.
`TGTCTTGTAATACCTTTTTTTTTAACTTTTTCAAGA` has a fluorescence intensity of 75.9 a.u.
With `CTTCTGTAAATTTGGGTAGTGGGTGGACGCGCCCCG` the fluorescence intensity was 85.8 a.u.
With `AACAAGAAGATCCATCACGTGCTTTGAAAAAAAATA` the fluorescence intensity was 7530 a.u.
`CTATGCAAGTTATGCCAGGTGACAGTGTTGAAATGG` gave a fluorescence intensity of 166 a.u.
With `CAAATGCCATGATTGCACGTGCAAAGTTTTGAGAAG` the fluorescence intensity was 2080 a.u.
`TGATTGCCTCCGACGCTCGTGACGGGTTCCTCCGAA` has a fluorescence intensity of 162 a.u.
The fluorescence intensity of `CGTCCTAGTGATTTTCACGTGATCTCCATGAGGAAG` is reported as 5860 a.u.
`GTCTTGTCTCATTGTTTCGTGGGTGTCCCCACTTCA` has a fluorescence intensity of 100 a.u.

Series 2
Target: Interferon regulatory factor 7, full length, phosphomimetic (IRF7, Homo sapiens, UniProt Q92985, residues 1-503, S471D/S472D/S475D/S476D/S477D/S483D/S484D/S487D)
Method: protein-binding microarray
Form: double-stranded DNA, one strand shown
Medium: in vitro
Tested at: 2200 nM top
Notes: 60-bp whole probe
Added: salmon DNA 0.4 mg/ml
Relative to: random background probes
Reading: higher = stronger binding
All sequences stand within: GCCTAGCAC … GTCTTGATTCGCTTGACGCTGCTG
Residues (chain): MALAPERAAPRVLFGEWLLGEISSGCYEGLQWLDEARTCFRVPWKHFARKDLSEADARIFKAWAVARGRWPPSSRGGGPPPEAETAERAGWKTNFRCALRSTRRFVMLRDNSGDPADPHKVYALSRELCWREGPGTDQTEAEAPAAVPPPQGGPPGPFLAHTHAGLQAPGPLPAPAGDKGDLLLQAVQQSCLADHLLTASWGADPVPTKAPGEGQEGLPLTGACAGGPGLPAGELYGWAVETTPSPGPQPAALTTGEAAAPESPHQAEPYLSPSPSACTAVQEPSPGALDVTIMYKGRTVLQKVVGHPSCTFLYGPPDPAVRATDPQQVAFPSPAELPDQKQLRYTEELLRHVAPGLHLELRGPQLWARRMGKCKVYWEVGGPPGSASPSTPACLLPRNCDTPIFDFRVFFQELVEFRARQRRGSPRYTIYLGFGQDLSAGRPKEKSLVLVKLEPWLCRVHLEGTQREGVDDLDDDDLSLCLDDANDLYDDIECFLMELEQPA
`GACGGTATCGGGTTTCGGCACGTGCTA` — result for “fitted relative affinity”: 0.661 z-score.
For `TTAGATCTCAGTACCGATTAGTGCTAG`, “fitted relative affinity” read 0.339 z-score.
Under “fitted relative affinity”, `GACGAACTGAAACTGGAGACGTGCTAG` is recorded as 1.25 z-score.
`GACGGTCTCAGTCTCGGGACGTGCTAG` — result for “fitted relative affinity”: -0.0887 z-score.
For `TTAGGTTTCGACAATCGGTTAGTGCTA`, “fitted relative affinity” read 2.14 z-score.
Under “fitted relative affinity”, `TCAGTTTTAGGTCCCTTACTGTGCTAG` is recorded as 1.68 z-score.
For `GACGGACTGGAATTTCGGGACGTGCTA`, “fitted relative affinity” read 0.415 z-score.
Under “fitted relative affinity”, `CTCAGTTTATTTATTTTTACGTGCTAG` is recorded as 0.816 z-score.
`TCATCATTTTCTTTAACACTGTGCTAG` — result for “fitted relative affinity”: 1.35 z-score.
Under “fitted relative affinity”, `GACGGCTTCGGGTTTCGGGACGTGCTA` is recorded as 1.38 z-score.
For `GACGGTTTCCTTCTTCTGACGTGCTAG`, “fitted relative affinity” read 2.83 z-score.
`GATGAACTGAGTATCGAGACGTGCTAG` — result for “fitted relative affinity”: -0.0305 z-score.
`TTAGTTTTCGGTTCCGGTTAGTGCTAG`: “fitted relative affinity” 11.3 z-score.
For `GCTTTCCCCTTGGACTCTTTGTGCTAG`, “fitted relative affinity” read 4.4 z-score.
For `TTAGGTTTCGAAACTGGGTTAGTGCTA`, “fitted relative affinity” read 3.28 z-score.
`TTAGCTATCGGGACTGGGTTAGTGCTA`: “fitted relative affinity” -0.313 z-score.
For `CTAGATATCGGGTATCGATTAGTGCTA`, “fitted relative affinity” read 0.335 z-score.
Under “fitted relative affinity”, `TTAGGACTGGGGTATCGATTAGTGCTA` is recorded as -0.275 z-score.
Under “fitted relative affinity”, `TCAACAGTTTTATTTTAGACTGTGCTA` is recorded as 0.183 z-score.

Series 3
Target: Prothrombin, mature alpha-thrombin (F2, Homo sapiens, UniProt P00734)
Method: aptamer microarray, sandwich
Form: DNA with 2'F-ANA
Medium: in vitro
Tested at: 200 nM
Notes: whole 15-mer aptamer, many near background
Added: Cy3 exosite-II aptamer, 400 nM
Reading: higher = stronger binding
Oligonucleotide: GGTTGGTGTGGTTGG
For `2'F-ANA at 4 5 7 8 14`, “mean fluorescence intensity” read 47.7 a.u.
For `2'F-ANA at 2 5 6 7 12 14 15`, “mean fluorescence intensity” read 50 a.u.
Under “mean fluorescence intensity”, `2'F-ANA at 3 6 7 8 9 10 12 13` is recorded as 540 a.u.
`2'F-ANA at 1 2 9 11 13`: “mean fluorescence intensity” 111 a.u.
Under “mean fluorescence intensity”, `2'F-ANA at 6 8 9` is recorded as 532 a.u.
`2'F-ANA at 1 2 3 5 6 9 10 13`: “mean fluorescence intensity” 47.6 a.u.
For `2'F-ANA at 1 3 4 11 13`, “mean fluorescence intensity” read 152 a.u.
For `2'F-ANA at 1 2 3 5 8 9 10 11 13 14 15`, “mean fluorescence intensity” read 76.7 a.u.
Under “mean fluorescence intensity”, `2'F-ANA at 1 6 11 13` is recorded as 126 a.u.
For `2'F-ANA at 2 7 10 12 14`, “mean fluorescence intensity” read 99.8 a.u.
Under “mean fluorescence intensity”, `2'F-ANA at 1 2 3 8 9 11 12 13` is recorded as 357 a.u.
Under “mean fluorescence intensity”, `2'F-ANA at 2 3 4 6 8 13` is recorded as 414 a.u.
`2'F-ANA at 2 4 5 6 8 9 10 13 14 15` — result for “mean fluorescence intensity”: 50.7 a.u.
For `2'F-ANA at 2 4 5 9 11 13 14 15`, “mean fluorescence intensity” read 49.2 a.u.
`2'F-ANA at 1 5 8 9 15` — result for “mean fluorescence intensity”: 63.3 a.u.
`2'F-ANA at 1 2 3 4 6 9 11 15`: “mean fluorescence intensity” 111 a.u.
For `2'F-ANA at 2 6 8 10`, “mean fluorescence intensity” read 119 a.u.

Single results of other studies
For `PhoQ, residues 284 288 289 292 302 303 TSTLRA`, the fold induction was 1.85 (PhoP, residues 12 14 15 18 19 HHYTI (Escherichia coli, UniProt P23836); Sort-seq, measured: YFP reporter; E. coli; PhoQ-PhoP variant library, added: 10 µM Mg2+; relative to: high Mg2+ state, higher = stronger signaling).

A few entries again (series 1):
The fluorescence intensity of `TTACTTTTAATCGATGACATGATAAGTTTCTTTTGA` is reported as 74.3 a.u.
With `CTTCTGTAAATTTGCGATGTGGGTGGACGCGCCCCG` the fluorescence intensity was 69.7 a.u.
The fluorescence intensity of `CTCACAGATCTTCAACACGTGAAGATCGGTTGCATT` is reported as 876 a.u.
The fluorescence intensity of `CGGGGTTAAGTTTTCCACGTGTTTTGCTTGCAGCAG` is reported as 598 a.u.
`TGATTGCCTCCGACGCTCGTGACGGGTTCCTCCGAA` has a fluorescence intensity of 162 a.u.
With `CTTCTGTAAATTTGGGTAGTGGGTGGACGCGCCCCG` the fluorescence intensity was 85.8 a.u.
`CTATGCAAGTTATGCCAGGTGACAGTGTTGAAATGG` gave a fluorescence intensity of 166 a.u.
